Results pooled from the literature.
Lines come from different studies, so protocols differ.
Organism: Klebsiella pneumoniae

SMILES | test | test system | conditions | MIC
CC1(C)[C@H](NC(=O)/C(=N\OCC(=O)N2CCC[C@@H]2C(=O)O)c2nsc(N)n2)C(=O)N1OS(=O)(=O)O | agar dilution | ATCC 700603, ESBL-producing | – | > 64 µg/mL
CC(=O)NC[C@H]1CN(c2ccc(N3CCN(C(=O)CN)CC3)c(F)c2)C(=O)O1 | broth dilution | ATCC 27736 | – | inactive
CC(C)C[C@@H]1NC(=O)[C@@H](CC(C)C)NC(=O)[C@H](CCN)NC(=O)[C@@H](NC(=O)[C@H](CCN)NC(=O)[C@@H](NC(=O)CN=[N+]=[N-])[C@@H](C)O)CCNC(=O)[C@H]([C@@H](C)O)NC(=O)[C@H](CCN)NC(=O)[C@H](CCN)NC1=O | broth microdilution | ATCC 13883, cation-adjusted Mueller-Hinton broth | 18 to 20 h, 37 °C, 0.002% polysorbate 80 | 32 µg/mL
CCCCCCn1cc[n+](CCCCCCOc2cc(OCCCCCC[n+]3ccn(CCCCCC)c3)cc(OCCCCCC[n+]3ccn(CCCCCC)c3)c2)c1.[Br-].[Br-].[Br-] | – | ATCC 4352 | – | 1 µM
CCCCCCCC[C@@H]1NC(=O)[C@@H](Cc2ccccc2)NC(=O)[C@H](CCN)NC(=O)[C@@H](NC(=O)[C@H](CCN)NC(=O)[C@@H](NC(=O)[C@H](CCN)NC(=O)CCCCCCC)[C@@H](C)O)CCNC(=O)[C@H]([C@@H](C)O)NC(=O)[C@H](CCN)NC(=O)[C@H](CCN)NC1=O | broth microdilution | ATCC 19606 | – | < 0.125 µg/mL
CCCCCCCCn1cc[n+](CCCCCCOc2cc(OCCCCCC[n+]3ccn(CCCCCCCC)c3)cc(OCCCCCC[n+]3ccn(CCCCCCCC)c3)c2)c1.[Br-].[Br-].[Br-] | – | ATCC 4352 | – | 1 µM
CC[C@H]1OC(=O)[C@H](C)[C@@H](OC(=O)Cc2ccccc2[N+](=O)[O-])[C@H](C)[C@@H](O[C@@H]2O[C@H](C)C[C@H](N(C)C)[C@H]2O)[C@](C)(OC)C[C@@H](C)C(=O)[C@H](C)[C@@H](O)[C@]1(C)O | microbial growth | ATCC700603 | – | > 32 µg/mL
C#CCO/N=C(\C(=O)N[C@@H]1C(=O)N(S(=O)(=O)O)[C@H]1C)c1csc(N)n1 | agar dilution | ATCC 700603 ESBL | – | 64 µg/mL
CC[C@H](C)[C@H](NC(=O)[C@H](CCCNC(=N)N)NC(=O)[C@H](CC(=O)O)NC(=O)[C@H](CCCNC(=N)N)NC(=O)[C@H](CC(C)C)NC(=O)[C@H](CC(N)=O)NC(=O)[C@H](CCCNC(=N)N)NC(=O)[C@@H](N)Cc1ccccc1)C(=O)N[C@@H](CCCCN)C(=O)N[C@@H](CC(N)=O)C(=O)N[C@@H](CCCCN)C(=O)N[C@@H](Cc1ccccc1)C(=O)N[C@@H](CCC(=O)O)C(=O)N[C@@H](CC(N)=O)C(=O)N[C@@H](C)C(=O)N[C@@H](CC(C)C)C(=O)N[C@@H](CCCCN)C(=O)N[C@@H](CC(N)=O)C(=O)N[C@H](C(=O)N[C@H](C(=O)N[C@@H](CC(N)=O)C(=O)N[C@@H](CCCCN)C(=O)N[C@@H](CC(C)C)C(=O)N[C@@H](Cc1ccccc1)C(=O)N1CCC[C@H]1C(=O)O)[C@@H](C)CC)C(C)C | broth microdilution | ATCC 43816 | 16 h, 37 °C, cation-adjusted Mueller-Hinton broth | 64 µg/mL
CN[C@H](CC(C)C)C(=O)N[C@H]1C(=O)N[C@@H](CC(N)=O)C(=O)N[C@H]2C(=O)N[C@H]3C(=O)N[C@H](C(=O)N[C@H](C(=O)N[C@@H](CCCNC(=N)N)C(N)=O)c4cc(O)cc(O)c4-c4cc3ccc4O)[C@H](O)c3ccc(c(Cl)c3)Oc3cc2cc(c3O[C@@H]2O[C@H](CO)[C@@H](O)[C@H](O)[C@H]2O[C@H]2C[C@](C)(NCc3ccc(OCc4cn(CC(=O)N[C@H](C(=O)N[C@@H](CCN)C(=O)N[C@H]5CCNC(=O)[C@H]([C@@H](C)O)NC(=O)[C@H](CCN)NC(=O)[C@H](CCN)NC(=O)[C@H](CC(C)C)NC(=O)[C@@H](CC(C)C)NC(=O)[C@H](CCN)NC5=O)[C@@H](C)O)nn4)c(OC)c3)[C@H](O)[C@H](C)O2)Oc2ccc(cc2Cl)[C@H]1O | broth microdilution | ATCC 13883, cation-adjusted Mueller-Hinton broth | 18 to 20 h, 37 °C, 0.002% polysorbate 80 | 32 µg/mL
CCCCCCn1cc[n+](CCCCCCCCOc2cc(OCCCCCCCC[n+]3ccn(CCCCCC)c3)cc(OCCCCCCCC[n+]3ccn(CCCCCC)c3)c2)c1.[Br-].[Br-].[Br-] | – | ATCC 4352 | – | 1 µM
CC1(C)[C@H](NC(=O)/C(=N\OC2(C(=O)O)CC2)c2nsc(N)n2)C(=O)N1OS(=O)(=O)O | agar dilution | ATCC 700603, ESBL-producing | – | 64 µg/mL
CCCCCCCC(=O)N[C@@H](CCN)C(=O)N[C@H](C(=O)N[C@@H](CCN)C(=O)N[C@H]1CCNC(=O)[C@H]([C@@H](C)O)NC(=O)[C@H](CCN)NC(=O)[C@H](CCN)NC(=O)[C@H](CC(C)C)NC(=O)[C@@H](Cc2ccccc2)NC(=O)[C@H](CCN)NC1=O)[C@@H](C)O | broth microdilution | ATCC 13883, colistin-susceptible | – | 0.5 to 1 µg/mL
CC(C)C[C@@H]1NC(=O)[C@@H](CC(C)C)NC(=O)[C@H](CCN)NC(=O)[C@@H](NC(=O)[C@H](CCN)NC(=O)[C@@H](NC(=O)CCCCN=[N+]=[N-])[C@@H](C)O)CCNC(=O)[C@H]([C@@H](C)O)NC(=O)[C@H](CCN)NC(=O)[C@H](CCN)NC1=O | broth microdilution | ATCC 13883, cation-adjusted Mueller-Hinton broth | 18 to 20 h, 37 °C, 0.002% polysorbate 80 | 4 µg/mL
C=CCO/N=C(\C(=O)N[C@@H]1C(=O)N(S(=O)(=O)O)[C@H]1C)c1csc(N)n1 | agar dilution | ATCC 700603 ESBL | – | 4 µg/mL
CC[C@H]1OC(=O)[C@H](C)[C@@H](OC(=O)Cc2ccc3c(c2)OCO3)[C@H](C)[C@@H](O[C@@H]2O[C@H](C)C[C@H](N(C)C)[C@H]2O)[C@](C)(OC)C[C@@H](C)C(=O)[C@H](C)[C@@H](O)[C@]1(C)O | microbial growth | ATCC700603 | – | > 32 µg/mL
CCCCCCCCCC[N+](C)(C)CCCCCCCCCCOc1cc(OCCCCCCCCCC[N+](C)(C)CCCCCCCCCC)cc(OCCCCCCCCCC[N+](C)(C)CCCCCCCCCC)c1.[Br-].[Br-].[Br-] | – | ATCC 4352 | – | 250 µM
CC1(C)[C@H](NC(=O)/C(=N\OCC(=O)N2CCC(C(=O)O)CC2)c2csc(N)n2)C(=O)N1OS(=O)(=O)O | agar dilution | 16-14, ESBL-producing | – | 32 µg/mL
COc1c(NC(=O)c2ccc(NC(=O)c3ccc(NC(=O)[C@H](CC#N)NC(=O)c4ccc(NC(=O)/C(C)=C/c5ccc(O)cc5)cc4)cc3)c(OC)c2O)ccc(C(=O)O)c1O | microbial growth, broth dilution | – | – | 128 µg/mL
CCCCCCCCCCCCCCCCCCn1cc(CN(CCC(=O)NCCN(CCC(=O)NCCN(CCC(=O)NCCN(C)C)CCC(=O)NCCN(C)C)CCC(=O)NCCN(CCC(=O)NCCN(C)C)CCC(=O)NCCN(C)C)CCC(=O)NCCN(CCC(=O)NCCN(CCC(=O)NCCN(C)C)CCC(=O)NCCN(C)C)CCC(=O)NCCN(CCC(=O)NCCN(C)C)CCC(=O)NCCN(C)C)nn1 | – | ATCC 43816, LB broth | 18 h | > 96 µg/mL
CC1(C)C(NC(=O)C(=NOCC(=O)N2CC3CCCC3C2C(=O)O)c2csc(N)n2)C(=O)N1OS(=O)(=O)O (stereo not drawn) | agar dilution | 16-14, ESBL-producing | – | 2 µg/mL
CCOc1c(NC(=O)c2ccc(NC(=O)c3ccc(NC(=O)[C@H](Cc4c[nH]nn4)NC(=O)c4ccc(NC(=O)/C(C)=C/c5ccc(O)cc5)cc4)cc3)c(OCC)c2O)ccc(C(=O)O)c1O | broth microdilution | ciprofloxacin-sensitive | – | 16 µg/mL
CC(C)C[C@@H]1NC(=O)[C@@H](CC(C)C)NC(=O)[C@H](CCN)NC(=O)[C@@H](NC(=O)[C@H](CCN)NC(=O)[C@@H](N)[C@@H](C)O)CCNC(=O)[C@H]([C@@H](C)O)NC(=O)[C@H](CCN)NC(=O)[C@H](CCN)NC1=O | broth microdilution | ATCC 27736, cation-adjusted Mueller-Hinton broth | 18 to 20 h, 37 °C, 0.002% polysorbate 80 | > 128 µg/mL
C#CCNC(=O)C(C)(C)O/N=C(\C(=O)N[C@@H]1C(=O)N(S(=O)(=O)O)[C@H]1C)c1csc(N)n1 | agar dilution | ATCC 700603 ESBL | – | 128 µg/mL
CC[C@H]1OC(=O)[C@H](C)C(=O)[C@H](C)[C@@H](O[C@@H]2O[C@H](C)C[C@H](N(C)C)[C@H]2O)[C@](C)(OC)C[C@@H](C)C(=O)[C@H](C)[C@H]2N(CCCCn3cnc(-c4cccnc4)c3)C(=O)O[C@]12C | microbial growth | ATCC700603 | – | > 32 µg/mL
CCCCCCCCCCCC[N+](C)(C)CCCCCCOc1cc(OCCCCCC[N+](C)(C)CCCCCCCCCCCC)cc(OCCCCCC[N+](C)(C)CCCCCCCCCCCC)c1.[Br-].[Br-].[Br-] | – | ATCC 4352 | – | 16 µM
C#CCO/N=C(\C(=O)N[C@@H]1C(=O)N(OS(=O)(=O)O)C1(C)C)c1nsc(N)n1 | agar dilution | ATCC 700603, ESBL-producing | – | > 64 µg/mL

Repeated from above:
SMILES | test | test system | conditions | MIC
CC[C@H]1OC(=O)[C@H](C)[C@@H](OC(=O)Cc2ccc3c(c2)OCO3)[C@H](C)[C@@H](O[C@@H]2O[C@H](C)C[C@H](N(C)C)[C@H]2O)[C@](C)(OC)C[C@@H](C)C(=O)[C@H](C)[C@@H](O)[C@]1(C)O | microbial growth | ATCC700603 | – | > 32 µg/mL
CCCCCCCCCC[N+](C)(C)CCCCCCCCCCOc1cc(OCCCCCCCCCC[N+](C)(C)CCCCCCCCCC)cc(OCCCCCCCCCC[N+](C)(C)CCCCCCCCCC)c1.[Br-].[Br-].[Br-] | – | ATCC 4352 | – | 250 µM
CC1(C)[C@H](NC(=O)/C(=N\OCC(=O)N2CCC(C(=O)O)CC2)c2csc(N)n2)C(=O)N1OS(=O)(=O)O | agar dilution | 16-14, ESBL-producing | – | 32 µg/mL
